Results collected from several papers.
Each line is one published result; not all experiments were run side by side.
STK32C: Serine/threonine-protein kinase 32C (STK32C, Homo sapiens, UniProt Q86UX6)
Chain of UniProt Q86UX6 (whole entry, looked up): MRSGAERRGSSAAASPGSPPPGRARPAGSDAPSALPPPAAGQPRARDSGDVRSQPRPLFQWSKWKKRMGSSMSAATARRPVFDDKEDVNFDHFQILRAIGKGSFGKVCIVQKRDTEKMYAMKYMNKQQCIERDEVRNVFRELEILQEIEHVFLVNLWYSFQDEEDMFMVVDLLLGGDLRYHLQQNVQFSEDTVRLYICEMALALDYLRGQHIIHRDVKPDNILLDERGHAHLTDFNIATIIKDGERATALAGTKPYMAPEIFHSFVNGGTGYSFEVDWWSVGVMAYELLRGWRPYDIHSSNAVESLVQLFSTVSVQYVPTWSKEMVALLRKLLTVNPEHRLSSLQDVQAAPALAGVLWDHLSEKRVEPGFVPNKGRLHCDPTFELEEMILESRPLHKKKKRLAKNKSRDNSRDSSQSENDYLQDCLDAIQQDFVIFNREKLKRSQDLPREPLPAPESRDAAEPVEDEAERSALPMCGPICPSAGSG
CTSL: Procathepsin L (CTSL, Homo sapiens, UniProt P07711)
Chain of UniProt P07711 (whole entry, looked up): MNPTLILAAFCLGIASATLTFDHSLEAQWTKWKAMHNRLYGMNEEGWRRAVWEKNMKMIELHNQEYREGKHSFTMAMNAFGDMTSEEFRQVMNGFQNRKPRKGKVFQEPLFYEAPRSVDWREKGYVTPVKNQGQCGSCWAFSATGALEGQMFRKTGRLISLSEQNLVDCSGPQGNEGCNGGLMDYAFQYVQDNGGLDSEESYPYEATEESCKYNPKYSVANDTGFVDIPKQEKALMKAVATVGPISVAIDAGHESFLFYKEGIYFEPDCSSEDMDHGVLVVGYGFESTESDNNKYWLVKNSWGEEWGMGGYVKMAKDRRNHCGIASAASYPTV
DRD3: D(3) dopamine receptor (DRD3, Homo sapiens, UniProt P35462)
Chain of UniProt P35462 (whole entry, looked up): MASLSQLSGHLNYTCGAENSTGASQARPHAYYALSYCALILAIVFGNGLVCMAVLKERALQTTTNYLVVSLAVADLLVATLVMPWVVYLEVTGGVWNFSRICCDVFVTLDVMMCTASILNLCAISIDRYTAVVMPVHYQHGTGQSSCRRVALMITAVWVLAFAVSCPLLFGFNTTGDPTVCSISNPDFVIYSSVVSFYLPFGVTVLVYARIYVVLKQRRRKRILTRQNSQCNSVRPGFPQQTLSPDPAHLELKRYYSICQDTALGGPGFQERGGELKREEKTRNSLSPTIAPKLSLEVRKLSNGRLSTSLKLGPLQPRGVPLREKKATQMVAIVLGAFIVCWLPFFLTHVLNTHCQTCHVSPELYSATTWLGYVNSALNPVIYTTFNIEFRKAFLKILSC
Chain of UniProt P78368 (whole entry, looked up): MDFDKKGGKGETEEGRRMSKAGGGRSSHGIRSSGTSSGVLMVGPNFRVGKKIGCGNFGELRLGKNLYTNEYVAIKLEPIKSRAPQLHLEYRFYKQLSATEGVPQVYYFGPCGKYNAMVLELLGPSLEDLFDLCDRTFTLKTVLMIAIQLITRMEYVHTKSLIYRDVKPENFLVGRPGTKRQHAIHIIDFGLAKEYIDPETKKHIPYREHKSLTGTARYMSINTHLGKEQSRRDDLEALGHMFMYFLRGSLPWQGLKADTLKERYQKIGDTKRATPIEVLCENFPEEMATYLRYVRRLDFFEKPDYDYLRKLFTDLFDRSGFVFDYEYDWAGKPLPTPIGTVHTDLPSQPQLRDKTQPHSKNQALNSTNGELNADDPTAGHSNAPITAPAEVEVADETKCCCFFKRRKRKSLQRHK
Chain of UniProt Q969F8 (whole entry, unmodified, looked up): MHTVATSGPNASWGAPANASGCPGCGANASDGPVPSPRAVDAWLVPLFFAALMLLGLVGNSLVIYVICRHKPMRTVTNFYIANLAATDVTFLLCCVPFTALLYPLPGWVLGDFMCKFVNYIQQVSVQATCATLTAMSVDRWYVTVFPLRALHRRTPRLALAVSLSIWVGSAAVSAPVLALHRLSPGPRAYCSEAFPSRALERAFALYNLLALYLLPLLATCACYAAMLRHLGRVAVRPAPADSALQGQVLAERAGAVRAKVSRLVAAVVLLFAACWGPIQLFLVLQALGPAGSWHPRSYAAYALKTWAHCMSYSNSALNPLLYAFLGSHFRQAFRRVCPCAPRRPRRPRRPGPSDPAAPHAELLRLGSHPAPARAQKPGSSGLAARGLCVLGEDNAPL
Chain of UniProt Q00535 (whole entry, looked up): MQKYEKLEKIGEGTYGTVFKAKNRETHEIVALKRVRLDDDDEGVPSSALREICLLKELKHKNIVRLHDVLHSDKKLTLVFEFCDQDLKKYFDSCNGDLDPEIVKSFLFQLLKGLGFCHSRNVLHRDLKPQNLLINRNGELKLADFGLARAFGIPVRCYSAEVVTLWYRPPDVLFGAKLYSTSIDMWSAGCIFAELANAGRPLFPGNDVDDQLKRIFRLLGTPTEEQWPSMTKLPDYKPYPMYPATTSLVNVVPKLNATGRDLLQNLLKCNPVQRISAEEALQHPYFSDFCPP
Chain of UniProt Q9BVS4 (whole entry, looked up): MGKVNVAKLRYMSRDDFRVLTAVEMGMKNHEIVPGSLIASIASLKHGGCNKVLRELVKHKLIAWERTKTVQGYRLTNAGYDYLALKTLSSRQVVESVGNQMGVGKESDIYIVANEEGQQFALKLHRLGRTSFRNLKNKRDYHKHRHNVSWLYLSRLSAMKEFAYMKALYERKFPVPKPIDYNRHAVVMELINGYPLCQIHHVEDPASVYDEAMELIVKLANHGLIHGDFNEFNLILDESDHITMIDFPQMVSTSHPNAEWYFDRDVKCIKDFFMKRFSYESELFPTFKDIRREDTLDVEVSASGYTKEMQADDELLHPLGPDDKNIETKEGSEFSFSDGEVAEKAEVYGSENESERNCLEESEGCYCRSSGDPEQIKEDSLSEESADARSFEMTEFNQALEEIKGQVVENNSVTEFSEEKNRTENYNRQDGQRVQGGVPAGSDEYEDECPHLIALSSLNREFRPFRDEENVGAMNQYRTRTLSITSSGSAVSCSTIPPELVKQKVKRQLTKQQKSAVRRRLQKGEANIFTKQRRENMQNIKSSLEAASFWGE
Chain of UniProt Q8TF76 (whole entry, looked up): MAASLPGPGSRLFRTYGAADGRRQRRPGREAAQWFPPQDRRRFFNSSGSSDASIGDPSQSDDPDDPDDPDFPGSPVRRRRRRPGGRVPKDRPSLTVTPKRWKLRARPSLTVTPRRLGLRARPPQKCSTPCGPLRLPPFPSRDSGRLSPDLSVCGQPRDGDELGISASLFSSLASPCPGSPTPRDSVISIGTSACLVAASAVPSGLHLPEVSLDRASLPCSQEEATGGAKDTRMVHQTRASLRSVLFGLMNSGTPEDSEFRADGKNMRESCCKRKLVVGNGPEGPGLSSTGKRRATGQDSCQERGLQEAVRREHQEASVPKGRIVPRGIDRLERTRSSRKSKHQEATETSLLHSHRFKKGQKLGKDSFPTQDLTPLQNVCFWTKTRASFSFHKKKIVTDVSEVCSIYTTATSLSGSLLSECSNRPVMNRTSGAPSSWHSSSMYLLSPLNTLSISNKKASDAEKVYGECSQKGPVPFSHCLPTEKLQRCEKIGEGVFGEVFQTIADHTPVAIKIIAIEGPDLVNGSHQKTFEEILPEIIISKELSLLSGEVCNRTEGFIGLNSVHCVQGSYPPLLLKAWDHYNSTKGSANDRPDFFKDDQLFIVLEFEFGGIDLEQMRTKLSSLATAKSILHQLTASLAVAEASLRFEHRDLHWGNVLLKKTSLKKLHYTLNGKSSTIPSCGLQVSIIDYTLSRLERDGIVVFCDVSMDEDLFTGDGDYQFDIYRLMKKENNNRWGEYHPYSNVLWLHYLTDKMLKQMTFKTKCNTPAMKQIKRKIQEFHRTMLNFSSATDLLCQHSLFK
Chain of UniProt P57078 (whole entry, looked up): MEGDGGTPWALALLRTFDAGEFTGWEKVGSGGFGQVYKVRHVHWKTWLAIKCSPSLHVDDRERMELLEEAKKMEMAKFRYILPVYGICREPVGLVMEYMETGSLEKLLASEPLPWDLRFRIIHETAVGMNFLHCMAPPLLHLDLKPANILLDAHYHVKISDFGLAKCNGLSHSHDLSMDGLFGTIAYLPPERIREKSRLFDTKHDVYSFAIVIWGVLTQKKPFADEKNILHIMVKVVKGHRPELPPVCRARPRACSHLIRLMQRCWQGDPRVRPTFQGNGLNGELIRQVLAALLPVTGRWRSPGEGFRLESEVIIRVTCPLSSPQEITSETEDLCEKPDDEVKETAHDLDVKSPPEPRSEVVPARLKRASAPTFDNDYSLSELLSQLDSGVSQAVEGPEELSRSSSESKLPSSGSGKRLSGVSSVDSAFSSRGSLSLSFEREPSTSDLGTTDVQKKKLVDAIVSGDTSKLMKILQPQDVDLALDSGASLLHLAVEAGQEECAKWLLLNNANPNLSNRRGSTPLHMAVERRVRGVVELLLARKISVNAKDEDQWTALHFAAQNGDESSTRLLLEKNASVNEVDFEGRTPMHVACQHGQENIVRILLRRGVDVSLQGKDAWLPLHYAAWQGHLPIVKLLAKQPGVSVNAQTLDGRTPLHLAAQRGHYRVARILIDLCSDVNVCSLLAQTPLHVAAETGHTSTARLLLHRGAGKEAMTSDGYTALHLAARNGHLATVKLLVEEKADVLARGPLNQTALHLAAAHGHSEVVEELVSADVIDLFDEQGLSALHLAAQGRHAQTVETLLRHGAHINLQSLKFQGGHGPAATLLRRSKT
Chain of UniProt P49841 (whole entry, looked up): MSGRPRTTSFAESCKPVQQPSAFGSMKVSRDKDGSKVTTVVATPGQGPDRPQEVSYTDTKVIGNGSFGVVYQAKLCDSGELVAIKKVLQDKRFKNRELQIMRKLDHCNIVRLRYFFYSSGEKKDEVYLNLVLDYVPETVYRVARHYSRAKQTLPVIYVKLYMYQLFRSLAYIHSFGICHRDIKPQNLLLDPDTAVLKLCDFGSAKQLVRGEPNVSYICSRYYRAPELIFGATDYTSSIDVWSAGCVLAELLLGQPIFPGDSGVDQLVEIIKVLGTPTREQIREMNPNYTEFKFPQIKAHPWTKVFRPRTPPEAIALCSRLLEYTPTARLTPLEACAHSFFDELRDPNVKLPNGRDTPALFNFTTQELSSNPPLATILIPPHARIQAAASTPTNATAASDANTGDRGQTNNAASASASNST

Structure (SMILES)	target or system	assay	test system	conditions	measurement	value
CC[C@H](C)[C@H](NC(=O)[C@H](CCC(N)=O)NC(=O)[C@H](CC(C)C)NC(=O)[C@H](CCSC)NC(=O)[C@H](CCCCN)NC(=O)[C@H](CO)NC(=O)[C@H](CO)NC(=O)[C@H](CCSC)NC(=O)[C@H](CC(C)C)NC(=O)[C@H](CC(N)=O)NC(=O)[C@@H](NC(=O)[C@@H](NC(=O)[C@H](CO)NC(=O)[C@H](CC(C)C)NC(=O)[C@H](CS)NC(=O)[C@H](CCCNC(=N)N)NC(=O)[C@H](CC(=O)O)NC(=O)[C@H](Cc1c[nH]c2ccccc12)NC(=O)[C@H](Cc1ccccc1)NC(=O)[C@H](C)NC(=O)[C@H](CCC(=O)O)NC(=O)[C@@H](N)CCCCN)C(C)C)[C@@H](C)CC)C(=O)N[C@@H](CC(N)=O)C(=O)N[C@@H](C)C(=O)O	Glycogen synthase kinase-3 beta (GSK3B, Homo sapiens, UniProt P49841)	enzyme activity, inhibitor, radiometric		10 µM	inhibition	1%
CCCCC(=O)Nc1ccc(-c2ccc3ncn(CCC)c(=O)c3c2)cn1	Serine/threonine-protein kinase haspin (HASPIN, Homo sapiens, UniProt Q8TF76)	binding, competition with immobilised ligand		0.5 µM	remaining binding	100%
COc1cc(-c2cncc3c2CN(C)Cc2cc(N4CCNCC4)ccc2-3)cc(OC)c1OC	STK32C	enzyme activity, inhibitor		1 µM	remaining activity	131%
CNc1ncc2c(/C=C/C(=O)N3CCC(OC)CC3)nn(Cc3cccc(C(F)(F)F)c3)c2n1	Casein kinase I isoform gamma-2 (CSNK1G2, Homo sapiens, UniProt P78368)	enzyme activity, inhibitor, radiometric		1 µM	remaining activity	106%
C1=C/COCc2cc(ccc2OCCN2CCCC2)Nc2nccc(n2)-c2cccc(c2)COC/1	Epidermal growth factor receptor (EGFR, Homo sapiens, UniProt P00533, del746-750)	binding		0.1 µM	remaining binding	71%
Nc1ccn([C@@H]2O[C@H](CO)[C@@H](O)C2(F)F)c(=O)n1	MCF7	cell growth or viability, MTT		0.625 µg/mL, 24 h	viability	80.8%
C=CC(=O)N1CCC(COCC(=O)N2CCN(c3nc(-c4cnc(N)nc4C(F)F)nc(N4CCOC[C@@H]4C)n3)CC2)CC1	STK32C	binding, competition with immobilised ligand		1 µM	remaining binding	100%
Nc1ncnc2occ(-c3ccc(NC(=O)Nc4cc(C(F)(F)F)ccc4F)cc3)c12	Receptor-interacting serine/threonine-protein kinase 4 (RIPK4, Homo sapiens, UniProt P57078)	cell-free assay, inhibitor		20 µM	remaining signal	9.8%
CC[C@H](C)[C@H](NC(=O)[C@H](CCC(N)=O)NC(=O)[C@@H](NC(=O)[C@H](CCSC)NC(=O)[C@H](CCCCN)NC(=O)[C@H](CO)NC(=O)[C@@H](NC(=O)[C@H](CCSC)NC(=O)[C@H](CC(C)C)NC(=O)[C@H](CC(N)=O)NC(=O)[C@@H](NC(=O)[C@@H](NC(=O)[C@H](CO)NC(=O)[C@H](CC(C)C)NC(=O)[C@H](C)NC(=O)[C@H](CCCNC(=N)N)NC(=O)[C@H](CCC(=O)O)NC(=O)[C@H](Cc1ccc(O)cc1)NC(=O)[C@H](Cc1ccccc1)NC(=O)[C@H](C)NC(=O)[C@H](CC(N)=O)NC(=O)[C@@H](N)CCCCN)[C@@H](C)CC)[C@@H](C)CC)[C@@H](C)O)C(C)C)C(=O)N[C@@H](CC(N)=O)C(=O)N[C@H](C(=O)O)C(C)C	Cyclin-dependent kinase 5, with p35 (CDK5, Homo sapiens, UniProt Q00535)	enzyme activity, inhibitor, radiometric		50 µM, 20 min	remaining activity	65%
O=C(/C=C/c1ccc(O)c2c1C(C(=O)OC(Cc1ccc(O)c(O)c1)C(=O)O)C(c1ccc(O)c(O)c1)O2)OC(Cc1ccc(O)c(O)c1)C(=O)O (stereo not shown)	CTSL	enzyme activity, inhibitor		100 µM	remaining activity	29%
CCN(C)C(=O)c1c(C)[nH]c(C)c1S(=O)(=O)Nc1ccc(C(F)(F)F)c(Cl)c1	DRD3	β-arrestin recruitment, agonist		90 min	Emax	98%
CC(C)CC(=O)N[C@H](C(=O)N[C@H](C(=O)N[C@@H](CC(C)C)[C@@H](O)CC(=O)N[C@@H](C)C(=O)N[C@@H](CC(C)C)[C@@H](O)CC(=O)O)C(C)C)C(C)C	CTSL	enzyme activity, inhibitor		100 µM	remaining activity	91.8%
Cc1cccc(N(O)N=Nc2ccc(S(=O)(=O)Nc3nccs3)cc2)c1		ABTS scavenging		120 µg/mL	inhibition	54.2%
COc1ccc(/C=C/C(=O)c2c(O)cc(OC)cc2OC)cc1	CTSL	enzyme activity, inhibitor		100 µM	remaining activity	147%
Cc1[nH]c(C)c(S(=O)(=O)Nc2ccc(C(F)(F)F)c(Cl)c2)c1C(=O)N1CC[C@@H](F)C1	DRD3	β-arrestin recruitment, agonist		90 min	Emax	97%
CC[C@H](C)[C@H](NC(=O)[C@H](CCC(N)=O)NC(=O)[C@H](CCCNC(=N)N)NC(=O)[C@H](CO)NC(=O)[C@H](Cc1c[nH]cn1)NC(=O)[C@@H]1CCCN1C(=O)[C@H](C)NC(=O)[C@H](CO)NC(=O)[C@H](CC(C)C)NC(=O)CNC(=O)[C@@H]1CCCN1C(=O)[C@H](CCC(N)=O)NC(=O)[C@H](CCC(N)=O)NC(=O)[C@H](CCCNC(=N)N)NC(=O)[C@H](CO)NC(=O)CNC(=O)[C@H](CO)NC(=O)[C@H](CO)NC(=O)[C@H](CCC(=O)O)NC(=O)[C@@H]1CCCN1C(=O)[C@@H]1CCCN1C(=O)[C@@H]1CCCN1C(=O)[C@H](CO)NC(=O)[C@H](CC(C)C)NC(=O)[C@H](CO)NC(=O)[C@@H](NC(=O)CN)[C@@H](C)O)C(=O)N1CCC[C@H]1C(=O)N[C@@H](C)C(=O)N1CCC[C@H]1C(=O)N[C@@H](CCC(N)=O)C(=O)NCC(=O)N[C@@H](C)C(=O)N[C@H](C(=O)N[C@@H](CC(C)C)C(=O)N[C@H](C(=O)N[C@@H](CCC(N)=O)C(=O)N[C@@H](CCCNC(=N)N)C(=O)N[C@@H](CCC(=O)O)C(=O)N[C@@H](CCCCN)C(=O)N[C@@H](CC(=O)O)C(=O)N[C@@H](CC(C)C)C(=O)N1CCC[C@H]1C(=O)N[C@@H](CC(N)=O)C(=O)N[C@@H](Cc1ccc(O)cc1)C(=O)N[C@@H](CC(N)=O)C(=O)N[C@@H](Cc1c[nH]c2ccccc12)C(=O)N[C@@H](CC(N)=O)C(=O)N[C@@H](CO)C(=O)N[C@@H](Cc1ccccc1)C(=O)NCC(=O)N[C@@H](CC(C)C)C(=O)N[C@@H](CCCNC(=N)N)C(=O)N[C@@H](Cc1ccccc1)C(N)=O)C(C)C)C(C)C	KiSS-1 receptor (KISS1R, Homo sapiens, UniProt Q969F8, Q123A)	inositol phosphate, agonist	HEK293		Emax	96.4%
CC1=CC(=O)c2ccccc2C1=O	CTSL	enzyme activity, inhibitor		100 µM	remaining activity	16.4%
Cc1cc([C@@H](C)Nc2ccccc2C(=O)O)c2nc(N3CCC(F)(F)CC3)c(C#N)c(=O)n2c1	Serine/threonine-protein kinase RIO2 (RIOK2, Homo sapiens, UniProt Q9BVS4)	binding, competition with immobilised ligand		10 µM	remaining binding	80%
COc1ccccc1C=CC=O	CTSL	enzyme activity, inhibitor		100 µM	remaining activity	53%
Cc1cccc(N(O)N=Nc2ccc(S(=O)(=O)Nc3cc(C)on3)cc2)c1		ABTS scavenging		120 µg/mL	inhibition	56.2%
CN(CCCC(F)(F)F)c1nccc(-c2cnn3ncccc23)n1	Cyclin-dependent kinase 2 homolog (CRK2, Plasmodium falciparum, UniProt P61075)	cell-free assay		1 µM	remaining signal	100%
Oc1ccc(/C=C\c2cc(O)cc(O)c2)cc1	CTSL	enzyme activity, inhibitor		100 µM	remaining activity	69.1%

Repeated from above:
Structure (SMILES)	target or system	assay	test system	conditions	measurement	value
CC(C)CC(=O)N[C@H](C(=O)N[C@H](C(=O)N[C@@H](CC(C)C)[C@@H](O)CC(=O)N[C@@H](C)C(=O)N[C@@H](CC(C)C)[C@@H](O)CC(=O)O)C(C)C)C(C)C	CTSL	enzyme activity, inhibitor		100 µM	remaining activity	91.8%
Cc1cccc(N(O)N=Nc2ccc(S(=O)(=O)Nc3nccs3)cc2)c1		ABTS scavenging		120 µg/mL	inhibition	54.2%
COc1ccc(/C=C/C(=O)c2c(O)cc(OC)cc2OC)cc1	CTSL	enzyme activity, inhibitor		100 µM	remaining activity	147%
